{"data": "Experimental data collected from several papers", "note": "A part holds a random share of what one study measured."}
{"data": "Series 1", "target": "Fragile X messenger ribonucleoprotein 1, C-terminal low-complexity region (Fmr1, Mus musculus, UniProt P35922)", "technique": "RNA Bind-n-Seq", "molecule type": "RNA", "matrix": "in vitro", "tested at": "200 nM", "notes": "whole 134-nt RNA, ends assumed", "added": "150 mM LiCl", "relative to": "input library", "reading": "higher = stronger binding", "all molecules": "7-deaza-guanosine replaces G", "constant ends, left off below": "GGGAGUUCUACAGUCCGACGAUC … UGGAAUUCUCGGGUGUCAAGG"}
{"Sequence": "UGGCCCUGGUGGCAUGCGGGGAGGAAGAGGUGGCCUCAUGGAUCGUGGUGGUCCCAGUGGAAUGUUCAGAGGUGGCCGUGGUGGAGACAG", "log2 enrichment": -0.142}
{"Sequence": "CACAGACAACACGCACCCACACAGACACAGAGGGAAGGGGUUCGGAUGGGGACAGGGUGCACAGCAGGGCGGGGUAGGACCCCAGCCCCU", "log2 enrichment": -0.398}
{"Sequence": "CCUCAAGUCCUGUGCUACACAUCGUAUGUACCGAAUCGGGGUGGUGGGUGGGGAAAGUAUUAUGUUACGCCGUUCGGAUCUGCACUUCCA", "log2 enrichment": -1}
{"Sequence": "UCAAGUCCUGUGCUACACAUCGUAUGUACCGAAUCGGUUUGGUUUGGGGUUUGGAAAGUAUUAUGUUACGCCGUUCGGAUCUGCACUUCC", "log2 enrichment": -1.66}
{"Sequence": "CCUCAAGUCCUGUGCUACACAUCGUAUGUACCGAAUCGGAAAGGUUUGGUGGAAAGUAUUAUGUUACGCCGUUCGGAUCUGCACUUCCAG", "log2 enrichment": -0.93}
{"Sequence": "AAGUCCUGUGCUACACAUCGUAUGUACCGAAUCGGGAGGGAAAAAGGGUUUUUGGGAAAGUAUUAUGUUACGCCGUUCGGAUCUGCACUU", "log2 enrichment": -1.71}
{"Sequence": "GCAGGAAGUAAAAACAAAUGGAAAUGCUUCGGAUAGUGGCAGGUGUGGGGGUUGCUAAGGAAAGGGUGGGAUGGGAGUGGGUAAAGAGUU", "log2 enrichment": 1.62}
{"Sequence": "UUAGAUGAGGACCUUGAGAUUGAAUUGGUUGAGGAAGAGCCUCCAUUCCUGAGAGGGCACACUAAGCAAAGCAUGGACAUGAGCCCCAUU", "log2 enrichment": -1.21}
{"Sequence": "UGGCCCUGGUGGCAUGCGGGGAGGAAGAGGUGGCCUCAUGGAUCGUGGUGGUGCCGGUGGAAUGUUCAGAGGUGGCCGUGGUGGAGACAG", "log2 enrichment": -0.154}
{"Sequence": "ACCAUGCAGGUGGGCAUCUUUGGGAAGCGGGGCAAGGGGGGGAUAGGGAGGGGGGUAACACUUUGGGAACAGGUGGUCCCAGGUCGUUUC", "log2 enrichment": 1.33}
{"Sequence": "GUCCUGUGCUACACAUCGUAUGUACCGAAUCGGGUUUUUUUGGGUGGGAAAAAAAGGGAAAGUAUUAUGUUACGCCGUUCGGAUCUGCAC", "log2 enrichment": -1.69}
{"data": "Series 2", "target": "Interferon regulatory factor 3, full length, phosphomimetic (IRF3, Homo sapiens, UniProt Q14653, residues 1-427, S386D/S396D/S398D/S402D/T404D/S405D)", "technique": "protein-binding microarray", "molecule type": "double-stranded DNA, one strand shown", "matrix": "in vitro", "tested at": "2540 nM top", "notes": "60-bp whole probe", "added": "salmon DNA 0.4 mg/ml", "relative to": "random background probes", "reading": "higher = stronger binding", "constant ends, left off below": "GCCTAGCAC … GTCTTGATTCGCTTGACGCTGCTG", "UniProt Q14653, sequence (whole entry, unmodified, looked up)": "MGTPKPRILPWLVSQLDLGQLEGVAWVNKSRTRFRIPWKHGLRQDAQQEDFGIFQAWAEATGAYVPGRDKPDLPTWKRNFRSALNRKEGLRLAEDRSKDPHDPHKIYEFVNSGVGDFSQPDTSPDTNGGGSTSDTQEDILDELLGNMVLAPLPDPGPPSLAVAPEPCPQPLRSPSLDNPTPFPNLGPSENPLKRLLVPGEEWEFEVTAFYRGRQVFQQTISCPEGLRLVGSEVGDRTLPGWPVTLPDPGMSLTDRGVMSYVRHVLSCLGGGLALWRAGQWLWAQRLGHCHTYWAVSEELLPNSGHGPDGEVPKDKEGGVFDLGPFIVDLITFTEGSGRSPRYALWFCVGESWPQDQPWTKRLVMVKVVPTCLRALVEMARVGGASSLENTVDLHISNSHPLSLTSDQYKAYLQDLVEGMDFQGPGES"}
{"Sequence": "TCACATGTGCTGTCTCAGACTGTGCTA", "fitted relative affinity [z-score]": 0.335}
{"Sequence": "GACGGTATCGACACTGCGGACGTGCTA", "fitted relative affinity [z-score]": 0.763}
{"Sequence": "TTGGGACTGGGTATCGGTTAGTGCTAG", "fitted relative affinity [z-score]": 0.045}
{"Sequence": "TCAAGTCCCATGTTGCAGACTGTGCTA", "fitted relative affinity [z-score]": 0.153}
{"Sequence": "GACGGACTGGGACTGCGGACGTGCTAG", "fitted relative affinity [z-score]": -0.965}
{"Sequence": "TGAGATATCAGTTTCGATTAGTGCTAG", "fitted relative affinity [z-score]": 4.7}
{"Sequence": "CTAGTTGTACTTTCTATCTCTGTGCTA", "fitted relative affinity [z-score]": 3.4}
{"Sequence": "TTAGGTTTGGGGTATCGGTTAGTGCTA", "fitted relative affinity [z-score]": 0.18}
{"Sequence": "GACGGCATCGGTATCGGGACGTGCTAG", "fitted relative affinity [z-score]": 0.494}
{"Sequence": "TTAGGTATCGACTTTCGGTTAGTGCTA", "fitted relative affinity [z-score]": 2.1}
{"Sequence": "GAGGGTCTCGGTATCGGGACGTGCTAG", "fitted relative affinity [z-score]": 0.808}
{"Sequence": "ATTTGTTTCCATTTTCTGAAGTGCTAG", "fitted relative affinity [z-score]": 9.37}
{"Sequence": "TTAGGGTTCGGGTTTCGGTTAGTGCTA", "fitted relative affinity [z-score]": 3.11}
{"Sequence": "GCACATGAGCCAAGCCTGCCGTGCTAG", "fitted relative affinity [z-score]": -0.591}
{"Sequence": "TCTGTTTTCTCCATGGAAGAGTGCTAG", "fitted relative affinity [z-score]": 2.07}
{"Sequence": "TTAGATTTCGGGACTCGATTAGTGCTA", "fitted relative affinity [z-score]": 1.21}
{"Sequence": "GACGGCCTGGGGACTGGGGACGTGCTA", "fitted relative affinity [z-score]": -1.27}
{"Sequence": "TTAGACATCAGTCTCGATTAGTGCTAG", "fitted relative affinity [z-score]": 0.0196}
{"Sequence": "GACGGTATCGGTTACGGGACGTGCTAG", "fitted relative affinity [z-score]": 3.98}
{"Sequence": "TAAGGTCTCCTTATCCTTTAGTGCTAG", "fitted relative affinity [z-score]": 2.65}
{"Sequence": "TTAGGTATCGGGTATCGGTAAGTGCTA", "fitted relative affinity [z-score]": 1.81}
{"Sequence": "TTAGGTTTCGGTACTGGGTTAGTGCTA", "fitted relative affinity [z-score]": 7.58}
{"Sequence": "GACGGTTCCCTTTTCCTGACGTGCTAG", "fitted relative affinity [z-score]": 5.96}
{"data": "Series 3", "target": "Centromere-binding protein 1, full length, His-tagged (CBF1, Saccharomyces cerevisiae, UniProt P17106, residues 1-351)", "technique": "competition protein-binding microarray", "molecule type": "double-stranded DNA, one strand shown", "matrix": "in vitro", "tested at": "2 µM", "notes": "whole 60-bp probe, lowest competitor level", "added": "Pho4 competitor, 0.05 µM", "reading": "higher = stronger binding", "constant ends, left off below": "… GTCTTGATTCGCTTGACGCTGCTG", "UniProt P17106, sequence (whole entry, looked up)": "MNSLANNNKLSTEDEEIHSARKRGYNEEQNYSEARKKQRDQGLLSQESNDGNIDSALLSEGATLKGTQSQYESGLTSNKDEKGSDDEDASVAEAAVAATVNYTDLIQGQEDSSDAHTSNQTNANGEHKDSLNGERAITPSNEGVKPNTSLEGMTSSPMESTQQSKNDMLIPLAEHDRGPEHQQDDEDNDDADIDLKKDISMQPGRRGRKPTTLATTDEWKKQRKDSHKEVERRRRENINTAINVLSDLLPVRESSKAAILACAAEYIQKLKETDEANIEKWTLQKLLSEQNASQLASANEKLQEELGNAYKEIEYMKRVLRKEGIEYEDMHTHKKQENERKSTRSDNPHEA"}
{"Sequence": "TTGCGCTAACGAAACCACATGGATCCTCCACACAAC", "fluorescence intensity": "100 a.u."}
{"Sequence": "CGATACCGTAACCACCATGTGGGCAAGTACCGTATT", "fluorescence intensity": "72.3 a.u."}
{"Sequence": "TGCGCAACAACTTTTCACGTGTATTTATGTCTAGAA", "fluorescence intensity": "897 a.u."}
{"Sequence": "CATACCCAACCTTGATTGGTGGGTGAAGATATTTGT", "fluorescence intensity": "59.1 a.u."}
{"Sequence": "GCAAACGACGAGCTTCACGTTCAGATTCCATTAGAA", "fluorescence intensity": "72.6 a.u."}
{"Sequence": "CGTCCCCCACCATGTCGCGTGTGAAGAATTGTGGGT", "fluorescence intensity": "130 a.u."}
{"Sequence": "TTCGCCCACAAAAGTTGCGTGCCGATCTAGTTCCAG", "fluorescence intensity": "72.1 a.u."}
{"Sequence": "TCGCACTGAAGCGATCAGCTGATGAACAGGCGGTAC", "fluorescence intensity": "395 a.u."}
{"Sequence": "ATTGGTGCAATTCCGCACGTTCCAACTTTCCGATGC", "fluorescence intensity": "94.1 a.u."}
{"Sequence": "TGCGCAACAACTTGGAACGTGGGTGTATGTCTAGAA", "fluorescence intensity": "74.7 a.u."}
{"Sequence": "GGTTTTCTTTTTTGGAATGTGATATATATACATATT", "fluorescence intensity": "130 a.u."}
{"Sequence": "CTTTGCCGCCTGAAACACGTGTTGAACAAGCCGCCC", "fluorescence intensity": "1370 a.u."}
{"Sequence": "CGATTCGCTGCTCAACACATGGAGGGCCCAAAGACA", "fluorescence intensity": "68.6 a.u."}
{"Sequence": "CTTTCCCGATCTTGTCACGGTACTTTAGCACATTTG", "fluorescence intensity": "232 a.u."}
{"Sequence": "GAGATACTTAAGCATCATGTGATGGTTTTGACACAA", "fluorescence intensity": "1240 a.u."}
{"Sequence": "CCTAATGCTACTCATCACAGCAATAAGGACACCTTT", "fluorescence intensity": "62 a.u."}
{"Sequence": "CTAACGAAGGTTTGCAACGTGGGTGACAAGCCAAGT", "fluorescence intensity": "83.7 a.u."}
{"Sequence": "GTCTTGTCTCATTGCAAAGTGGGTGTCCCCACTTCA", "fluorescence intensity": "93.5 a.u."}
{"Sequence": "CGGAAGGGAGATCCGCACGTGACGGTTGAAAAAGGG", "fluorescence intensity": "5160 a.u."}
{"Sequence": "TCAGGAATATGAAGGCAGGTGAAATGAAACCAGTCA", "fluorescence intensity": "63.6 a.u."}
{"Sequence": "GAGAAACTATTACAGCACGTGAAATCCTTGCCTATG", "fluorescence intensity": "1110 a.u."}
{"Sequence": "GTCTTGTCTCATTTTCACGTGATCTTCCCCACTTCA", "fluorescence intensity": "4390 a.u."}
{"Sequence": "ATCCGATTGGATGGACACATGCGATTCAACGCCGCT", "fluorescence intensity": "80.5 a.u."}
{"Sequence": "GTCTTGTCTCATTGCCATGTGGGTGTCCCCACTTCA", "fluorescence intensity": "95.3 a.u."}
{"Sequence": "TTTTTAGTAGTTTGTCATGCTGTATTAATGATTTTC", "fluorescence intensity": "92.9 a.u."}
{"data": "Series 4", "target": "Sal-like protein 4, full length isoform A (SALL4, Homo sapiens, UniProt Q9UJQ4, residues 1-1053)", "technique": "universal PBM", "molecule type": "double-stranded DNA, one strand shown", "matrix": "in vitro", "tested at": "600 nM", "notes": "8-mer, flanks averaged, mean of replicates", "reading": "higher = stronger binding", "UniProt Q9UJQ4, sequence (whole entry, looked up)": "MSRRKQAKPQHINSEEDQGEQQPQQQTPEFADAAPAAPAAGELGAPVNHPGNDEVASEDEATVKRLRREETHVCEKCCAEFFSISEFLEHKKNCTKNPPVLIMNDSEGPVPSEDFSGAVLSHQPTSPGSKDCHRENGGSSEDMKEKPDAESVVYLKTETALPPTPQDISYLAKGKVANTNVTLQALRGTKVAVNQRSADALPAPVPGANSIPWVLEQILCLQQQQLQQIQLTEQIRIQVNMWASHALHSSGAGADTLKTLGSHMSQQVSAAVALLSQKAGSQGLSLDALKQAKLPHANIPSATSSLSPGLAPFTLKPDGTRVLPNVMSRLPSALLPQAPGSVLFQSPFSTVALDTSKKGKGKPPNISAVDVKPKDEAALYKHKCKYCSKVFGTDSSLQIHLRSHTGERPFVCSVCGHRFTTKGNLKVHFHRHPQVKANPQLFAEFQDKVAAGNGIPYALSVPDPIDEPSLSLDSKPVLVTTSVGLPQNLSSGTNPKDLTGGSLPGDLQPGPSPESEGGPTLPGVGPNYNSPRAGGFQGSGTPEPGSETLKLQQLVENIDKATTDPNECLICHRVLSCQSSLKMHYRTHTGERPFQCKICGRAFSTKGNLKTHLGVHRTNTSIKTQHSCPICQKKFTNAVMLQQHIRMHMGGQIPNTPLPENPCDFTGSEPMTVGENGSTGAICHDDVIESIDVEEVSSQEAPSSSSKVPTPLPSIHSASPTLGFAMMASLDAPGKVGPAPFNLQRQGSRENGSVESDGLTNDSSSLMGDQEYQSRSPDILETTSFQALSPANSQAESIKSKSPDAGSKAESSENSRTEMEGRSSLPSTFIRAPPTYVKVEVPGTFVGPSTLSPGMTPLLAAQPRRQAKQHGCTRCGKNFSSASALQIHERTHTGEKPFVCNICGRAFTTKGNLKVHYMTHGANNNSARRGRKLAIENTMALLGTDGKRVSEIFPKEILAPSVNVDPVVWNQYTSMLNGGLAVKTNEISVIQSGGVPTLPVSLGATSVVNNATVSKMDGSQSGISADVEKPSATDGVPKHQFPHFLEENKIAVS"}
{"Sequence": "AATAACTC", "E-score": 0.327}
{"Sequence": "CACGTAGG", "E-score": -0.0639}
{"Sequence": "CGTCTGAG", "E-score": -0.0905}
{"Sequence": "CTGAACAC", "E-score": 0.0462}
{"Sequence": "AGCACAAA", "E-score": 0.0619}
{"Sequence": "CCCTAGAG", "E-score": -0.203}
{"Sequence": "CCACGAGA", "E-score": -0.266}
{"Sequence": "GACACGTC", "E-score": -0.204}
{"Sequence": "CGGCAAAG", "E-score": -0.258}
{"Sequence": "CAGGTAAG", "E-score": -0.0167}
{"Sequence": "ACATTCGA", "E-score": 0.112}
{"Sequence": "CGAGGGGA", "E-score": -0.239}
{"Sequence": "AGGTACGA", "E-score": 0.0744}
{"Sequence": "GATCCGGA", "E-score": -0.231}
{"Sequence": "GTAAACAC", "E-score": 0.0637}
{"Sequence": "AGCTAATC", "E-score": 0.145}
{"Sequence": "CCGTGAGA", "E-score": -0.259}
{"Sequence": "AAACTGTC", "E-score": 0.0382}
{"Sequence": "GCGTGGTA", "E-score": -0.117}
{"Sequence": "TGATTCAA", "E-score": 0.176}
{"Sequence": "CGGGTGAA", "E-score": -0.141}
{"Sequence": "AAGAGCCT", "E-score": -0.106}
{"Sequence": "CGCAGTCA", "E-score": -0.0632}
{"Sequence": "CAGTACGC", "E-score": -0.0408}
{"Sequence": "AACCGATT", "E-score": 0.0168}
{"data": "Mixed results"}
{"Sequence": "GGAGTGCGCACTCC (dsDNA)", "target": "KAT6A 1-85 (Homo sapiens, UniProt Q92794)", "assay": "ITC", "system": "double-stranded DNA, one strand shown", "endpoint": "binding", "result": "binds"}
{"note": "For quick reference, copied from above (series 4):"}
{"Sequence": "CCCTAGAG", "E-score": -0.203}
{"Sequence": "CCACGAGA", "E-score": -0.266}
{"Sequence": "GACACGTC", "E-score": -0.204}
{"Sequence": "CGGCAAAG", "E-score": -0.258}
{"Sequence": "CAGGTAAG", "E-score": -0.0167}
{"Sequence": "ACATTCGA", "E-score": 0.112}
{"Sequence": "CGAGGGGA", "E-score": -0.239}
{"Sequence": "AGGTACGA", "E-score": 0.0744}
